Published values pooled from the literature.
Every numbered part comes from another study and shows a few of its results, in no order.
Sequence of UniProt Q96BR1 (whole entry, looked up): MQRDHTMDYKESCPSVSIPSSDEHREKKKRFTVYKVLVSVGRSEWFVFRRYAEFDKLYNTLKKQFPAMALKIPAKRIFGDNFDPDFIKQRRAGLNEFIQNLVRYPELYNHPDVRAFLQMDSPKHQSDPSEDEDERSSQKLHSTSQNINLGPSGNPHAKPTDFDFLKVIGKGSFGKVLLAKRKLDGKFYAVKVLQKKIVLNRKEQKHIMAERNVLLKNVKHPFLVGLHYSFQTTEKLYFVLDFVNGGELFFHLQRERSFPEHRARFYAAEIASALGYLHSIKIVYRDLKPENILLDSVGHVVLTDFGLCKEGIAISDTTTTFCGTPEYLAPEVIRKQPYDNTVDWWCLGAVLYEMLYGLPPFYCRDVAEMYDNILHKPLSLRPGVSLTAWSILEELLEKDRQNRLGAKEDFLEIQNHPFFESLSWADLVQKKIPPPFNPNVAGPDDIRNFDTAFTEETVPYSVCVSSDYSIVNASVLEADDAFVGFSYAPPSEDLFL
Sequence of UniProt Q6ZWH5 (whole entry, looked up): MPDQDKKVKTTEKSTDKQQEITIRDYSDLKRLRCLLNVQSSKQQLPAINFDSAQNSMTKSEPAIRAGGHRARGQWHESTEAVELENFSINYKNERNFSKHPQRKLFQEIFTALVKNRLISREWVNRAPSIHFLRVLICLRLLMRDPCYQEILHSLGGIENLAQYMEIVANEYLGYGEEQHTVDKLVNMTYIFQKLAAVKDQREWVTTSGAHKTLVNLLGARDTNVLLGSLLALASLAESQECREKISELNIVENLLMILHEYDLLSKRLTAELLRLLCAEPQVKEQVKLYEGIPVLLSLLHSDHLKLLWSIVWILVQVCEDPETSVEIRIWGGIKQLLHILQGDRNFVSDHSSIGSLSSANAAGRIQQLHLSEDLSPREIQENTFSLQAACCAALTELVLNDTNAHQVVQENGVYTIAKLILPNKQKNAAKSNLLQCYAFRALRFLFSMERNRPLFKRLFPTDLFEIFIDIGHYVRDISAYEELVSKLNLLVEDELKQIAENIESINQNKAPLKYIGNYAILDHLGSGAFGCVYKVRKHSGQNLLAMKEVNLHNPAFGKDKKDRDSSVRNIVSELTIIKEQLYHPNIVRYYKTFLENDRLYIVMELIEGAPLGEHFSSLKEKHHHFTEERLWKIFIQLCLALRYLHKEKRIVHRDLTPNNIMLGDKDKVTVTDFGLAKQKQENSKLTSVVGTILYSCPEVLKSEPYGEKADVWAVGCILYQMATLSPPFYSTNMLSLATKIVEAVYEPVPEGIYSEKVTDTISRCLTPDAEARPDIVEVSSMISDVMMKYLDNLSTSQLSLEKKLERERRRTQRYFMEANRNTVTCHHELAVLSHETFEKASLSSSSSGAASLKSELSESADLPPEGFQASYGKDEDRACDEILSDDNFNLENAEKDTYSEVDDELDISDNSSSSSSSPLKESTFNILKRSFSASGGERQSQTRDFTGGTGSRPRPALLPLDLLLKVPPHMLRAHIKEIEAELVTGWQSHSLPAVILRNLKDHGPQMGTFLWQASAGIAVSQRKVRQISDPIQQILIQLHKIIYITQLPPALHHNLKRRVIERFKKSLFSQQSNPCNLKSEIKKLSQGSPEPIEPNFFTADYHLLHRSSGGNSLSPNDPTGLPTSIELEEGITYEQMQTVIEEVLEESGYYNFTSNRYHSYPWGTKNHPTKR
Sequence of UniProt Q13464 (whole entry, looked up): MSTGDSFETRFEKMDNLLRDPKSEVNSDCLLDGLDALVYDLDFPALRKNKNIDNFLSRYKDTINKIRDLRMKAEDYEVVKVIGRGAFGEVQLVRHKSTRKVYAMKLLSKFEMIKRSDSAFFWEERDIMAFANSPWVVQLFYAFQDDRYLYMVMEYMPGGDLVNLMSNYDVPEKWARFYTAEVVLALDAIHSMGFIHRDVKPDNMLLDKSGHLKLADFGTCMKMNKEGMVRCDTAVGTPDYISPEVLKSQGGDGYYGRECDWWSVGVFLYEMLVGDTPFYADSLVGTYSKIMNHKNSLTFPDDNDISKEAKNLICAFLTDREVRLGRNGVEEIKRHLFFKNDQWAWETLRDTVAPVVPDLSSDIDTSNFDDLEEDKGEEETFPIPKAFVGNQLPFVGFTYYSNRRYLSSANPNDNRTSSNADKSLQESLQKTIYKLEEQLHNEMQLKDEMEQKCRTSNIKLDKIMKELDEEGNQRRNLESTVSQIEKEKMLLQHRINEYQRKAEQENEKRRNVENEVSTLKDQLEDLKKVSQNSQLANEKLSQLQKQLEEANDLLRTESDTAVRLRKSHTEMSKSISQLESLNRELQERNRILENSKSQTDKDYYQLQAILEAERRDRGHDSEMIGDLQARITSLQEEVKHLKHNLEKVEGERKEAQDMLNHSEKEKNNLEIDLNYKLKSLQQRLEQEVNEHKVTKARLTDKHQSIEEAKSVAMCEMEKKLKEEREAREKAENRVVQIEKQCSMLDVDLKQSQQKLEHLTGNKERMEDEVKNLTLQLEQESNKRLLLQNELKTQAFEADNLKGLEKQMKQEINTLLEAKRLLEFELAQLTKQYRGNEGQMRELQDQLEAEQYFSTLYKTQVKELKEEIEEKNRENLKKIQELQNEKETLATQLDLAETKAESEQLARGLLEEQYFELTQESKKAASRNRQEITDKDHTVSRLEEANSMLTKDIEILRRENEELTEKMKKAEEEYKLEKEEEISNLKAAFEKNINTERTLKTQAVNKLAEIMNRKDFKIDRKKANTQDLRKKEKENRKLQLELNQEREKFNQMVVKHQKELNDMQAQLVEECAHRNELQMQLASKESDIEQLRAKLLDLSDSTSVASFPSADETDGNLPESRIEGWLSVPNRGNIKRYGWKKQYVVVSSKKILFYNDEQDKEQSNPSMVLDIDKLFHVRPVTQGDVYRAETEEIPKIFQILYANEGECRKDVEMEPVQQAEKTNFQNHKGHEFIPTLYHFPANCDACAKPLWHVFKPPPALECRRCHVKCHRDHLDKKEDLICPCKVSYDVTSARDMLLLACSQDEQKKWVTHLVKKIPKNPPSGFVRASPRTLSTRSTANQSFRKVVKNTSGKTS
Sequence of UniProt O14578 (whole entry, looked up): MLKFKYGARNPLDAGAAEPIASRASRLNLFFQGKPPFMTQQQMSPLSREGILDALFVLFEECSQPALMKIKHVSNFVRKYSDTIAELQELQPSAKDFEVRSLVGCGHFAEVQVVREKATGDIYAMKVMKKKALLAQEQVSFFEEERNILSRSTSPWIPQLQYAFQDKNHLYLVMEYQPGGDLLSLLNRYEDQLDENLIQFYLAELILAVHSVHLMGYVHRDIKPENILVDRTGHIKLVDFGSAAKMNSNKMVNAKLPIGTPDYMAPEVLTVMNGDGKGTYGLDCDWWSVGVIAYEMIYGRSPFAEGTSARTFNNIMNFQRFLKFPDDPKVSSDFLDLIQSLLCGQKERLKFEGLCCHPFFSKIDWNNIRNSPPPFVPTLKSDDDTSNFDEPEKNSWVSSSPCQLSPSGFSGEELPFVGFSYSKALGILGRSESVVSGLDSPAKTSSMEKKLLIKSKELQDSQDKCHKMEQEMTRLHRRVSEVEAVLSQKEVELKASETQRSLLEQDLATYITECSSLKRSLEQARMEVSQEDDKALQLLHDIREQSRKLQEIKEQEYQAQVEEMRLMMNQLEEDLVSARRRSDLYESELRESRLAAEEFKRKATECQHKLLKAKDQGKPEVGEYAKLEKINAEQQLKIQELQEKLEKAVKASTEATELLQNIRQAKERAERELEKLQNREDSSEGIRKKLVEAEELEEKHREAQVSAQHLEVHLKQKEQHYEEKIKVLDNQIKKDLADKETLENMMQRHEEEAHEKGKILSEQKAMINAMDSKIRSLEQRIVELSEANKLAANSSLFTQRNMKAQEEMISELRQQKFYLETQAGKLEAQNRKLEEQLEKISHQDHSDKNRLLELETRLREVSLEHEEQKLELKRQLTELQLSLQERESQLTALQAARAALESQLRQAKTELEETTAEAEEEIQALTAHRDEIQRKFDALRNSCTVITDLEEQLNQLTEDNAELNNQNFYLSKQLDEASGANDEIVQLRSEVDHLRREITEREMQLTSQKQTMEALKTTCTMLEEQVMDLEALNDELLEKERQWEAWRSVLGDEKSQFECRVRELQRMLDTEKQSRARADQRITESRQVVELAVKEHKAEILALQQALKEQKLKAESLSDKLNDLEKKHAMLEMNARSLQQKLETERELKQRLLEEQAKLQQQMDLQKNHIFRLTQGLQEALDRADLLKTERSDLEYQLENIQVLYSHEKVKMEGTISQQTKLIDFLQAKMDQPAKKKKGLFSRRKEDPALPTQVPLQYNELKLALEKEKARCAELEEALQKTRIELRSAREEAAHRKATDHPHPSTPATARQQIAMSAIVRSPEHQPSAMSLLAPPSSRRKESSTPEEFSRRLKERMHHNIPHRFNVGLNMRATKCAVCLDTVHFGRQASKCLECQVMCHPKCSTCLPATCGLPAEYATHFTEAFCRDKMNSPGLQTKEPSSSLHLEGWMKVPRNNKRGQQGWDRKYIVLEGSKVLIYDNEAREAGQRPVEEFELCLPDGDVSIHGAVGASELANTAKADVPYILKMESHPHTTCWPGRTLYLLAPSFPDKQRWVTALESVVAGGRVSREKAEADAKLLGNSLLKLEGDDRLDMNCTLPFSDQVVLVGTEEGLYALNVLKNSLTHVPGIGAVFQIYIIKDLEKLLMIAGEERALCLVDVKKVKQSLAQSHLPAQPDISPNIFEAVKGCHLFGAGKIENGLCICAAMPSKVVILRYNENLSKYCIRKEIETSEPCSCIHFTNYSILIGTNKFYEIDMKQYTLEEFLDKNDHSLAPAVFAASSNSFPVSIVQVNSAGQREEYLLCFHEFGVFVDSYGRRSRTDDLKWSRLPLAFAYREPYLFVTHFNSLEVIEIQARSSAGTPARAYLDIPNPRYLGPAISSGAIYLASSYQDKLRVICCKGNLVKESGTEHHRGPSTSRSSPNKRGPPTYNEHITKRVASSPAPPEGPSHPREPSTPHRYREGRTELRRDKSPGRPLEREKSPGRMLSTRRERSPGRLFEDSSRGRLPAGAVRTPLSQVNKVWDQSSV

Study 1
Host: mouse
Matrix: microsomes or S9
Concentration: 2 µM
Time: 0.5 h
Compound	remaining compound [%]
COc1ccc(-c2c(-c3ccccc3)nn(-c3ccccc3OC)c2N)cc1OC	25.3
O=C(C1c2ccccc2C(=O)N2CCc3ccccc3C12)N1CCC(Cc2ccccc2)CC1 (stereo not shown)	0.0795
CSc1[nH]c2c(C(F)(F)F)ccc(C(F)(F)F)c2c(=O)c1C(C)=O	> 99

Study 2
Target: PABPC1L2, full length, GST fusion (mouse, UniProt A0ABA7IW68)
Technique: RNAcompete
Form: RNA
Matrix: in vitro
Concentration: 20 nM
Notes: 7-mer, probes averaged, single round
Reference: mean of 7-mers
Reading: higher = stronger binding
Construct (chain): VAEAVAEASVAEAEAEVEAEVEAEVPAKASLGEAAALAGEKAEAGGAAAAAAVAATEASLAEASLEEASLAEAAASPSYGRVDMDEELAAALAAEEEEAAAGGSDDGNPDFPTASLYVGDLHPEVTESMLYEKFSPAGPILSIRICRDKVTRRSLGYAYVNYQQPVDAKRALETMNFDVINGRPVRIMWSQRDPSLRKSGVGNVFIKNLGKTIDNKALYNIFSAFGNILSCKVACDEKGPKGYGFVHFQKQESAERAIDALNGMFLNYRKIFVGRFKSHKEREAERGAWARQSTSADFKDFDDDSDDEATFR
Sequence	7-mer Z-score
GAAGUCA	-0.233
CACACGA	0.00798
UCCUGCA	-0.186
GAUUACA	0.0569
AUAGACU	-0.177
GCCGGCA	-0.335
GUUAGCC	-0.383
ACCCUUU	-0.208

Study 3
Structure (SMILES): C[C@H](NC(=O)c1cnc2n1[C@](C)(Cc1ccc(C#N)cc1)C(=O)N2c1cc(Cl)c(F)c(Cl)c1)C(=O)NC1(c2ccccn2)CC1
Read-out: cell-free assay
Technique: competition with immobilised ligand
Concentration: 1 µM
target	remaining binding [%]
Protein kinase C delta type (PRKCD, Homo sapiens, UniProt Q05655)	100
Rho-associated protein kinase 1 (ROCK1, Homo sapiens, UniProt Q13464)	100
Serine/threonine-protein kinase Sgk3 (SGK3, Homo sapiens, UniProt Q96BR1)	100
Dual specificity protein kinase CLK4 (CLK4, Homo sapiens, UniProt Q9HAZ1)	88
Citron Rho-interacting kinase (CIT, Homo sapiens, UniProt O14578)	100
Serine/threonine-protein kinase Nek10 (NEK10, Homo sapiens, UniProt Q6ZWH5)	100
Dual specificity tyrosine-phosphorylation-regulated kinase 1A (DYRK1A, Homo sapiens, UniProt Q13627)	100

Further values, each from its own experiment
SMILES	test	system	setting	measurement	result
CCC[C@H]1NC(=O)CSC[C@@H](C(=O)OCC)N(C)C(=O)[C@H](CC(C)C)NC(=O)[C@@H](C)N(C)C(=O)[C@H](CC(C)C)NC(=O)[C@H](C)N(C)C(=O)[C@@H](C)N(C)C(=O)[C@@H](CC(C)C)NC(=O)CN(CCC)C1=O	PRP chromatography estimate	1,9-decadiene/PBS	pH 7.4	logD	0.399

A few entries again (study 2):
Sequence	7-mer Z-score
GUUAGCC	-0.383
ACCCUUU	-0.208
